Measurements pooled from the literature.
Compare with care: the assays were run in different laboratories. Several values in a cell are separate wells, animals, samples, runs or records. Numbers after ± are the reported error.

OCC1=C[C@@H](O)[C@@H]2C=CO[C@@H](O[C@@H]3O[C@H](CO)[C@@H](O)[C@H](O)[C@H]3O)[C@H]12 has an AUC(0-inf) decrease of 197000 ± 126000 ng·h/mL (rat, plasma; oral, dose not given, dosed as combined Eu and Pc extracts; relative to: single extracts).
The AUC(0-inf) ratio of C=CC(=O)N1CCC(Oc2cc3c(Nc4ccc(Cl)c(Cl)c4F)ncnc3cc2OC)CC1 is reported as 0.58 fold (Sprague-Dawley rat male, plasma; oral, 2 mg/kg, together with: schisandrin B 20 mg/kg daily 1 weeks pretreatment; relative to: no pretreatment).
With O=C(O)C1=CO[C@@H](O[C@@H]2O[C@H](CO)[C@@H](O)[C@H](O)[C@H]2O)[C@@H]2C(CO)=CC[C@H]12 the AUC(0-inf) increase was 401000 ± 312000 ng·h/mL (Sprague-Dawley rat, internal jugular vein plasma; oral, dose not given, dosed as combined Eu and Pc extracts; relative to: Eu extract alone).
Cc1cccc(CNC(=O)c2cn(CCNC(=O)c3ccccc3S)c3cc4c(cc3c2=O)OC(F)(F)O4)n1 has an AUC(0-inf) of 8880 ng·h/mL (Sprague-Dawley rat, male, whole blood; intramuscular, 30 mg/kg of parent compound).
CNC(=O)c1cccc(-c2ccc([C@@H](O)[C@H]3O[C@H](CO)[C@@H](O)[C@H](O)[C@@H]3O)c(C)c2)c1 has an AUC(0-inf) of 83.8 ng·h/mL (male Sprague-Dawley rat, plasma; oral, 10 mg/kg, group mean).
C1=C/COCc2cc(ccc2OCCN2CCCC2)Nc2nccc(n2)-c2cccc(c2)COC/1 has an AUC(0-inf) of 11800 ± 7580 ng·h/mL (LC-MS/MS; Sprague-Dawley rat, male, plasma; oral, 36 mg/kg, together with: isavuconazole 20 mg/kg oral).
For C=CC(=O)N1CCC([C@@H]2CCNc3c(C(N)=O)c(-c4ccc(Oc5ccccc5)cc4)nn32)CC1, “AUC(0-inf) fold change” read 0.98 fold (Sprague-Dawley rat; oral, dose not given, together with: posaconazole; relative to: alone).
With COc1cc2nccc(Oc3ccc(NC(=O)NC4CC4)c(Cl)c3)c2cc1C(N)=O the AUC(0-inf) increase was 50% (Sprague-Dawley rats male, plasma; oral, dose not given, together with: isavuconazole; relative to: without isavuconazole).
With CSc1ccccc1C(=O)NCCn1cc(C(=O)NCc2cccc(C)n2)c(=O)c2cc3c(cc21)OC(F)(F)O3 the AUC(0-inf) was 1140 ± 35.3 ng·h/mL (Sprague-Dawley rat, male, plasma; intravenous, 20 mg/kg of parent drug).
For COC(=O)C1=CO[C@@H](O[C@@H]2O[C@H](CO)[C@@H](O)[C@H](O)[C@H]2O)[C@@H]2C(CO)=CC[C@H]12, the AUC(0-inf) decrease was 135000 ± 64200 ng·h/mL (rat, plasma; oral, dose not given, dosed as combined Eu and Pc extracts; relative to: single extracts).
For CCc1cc(C(=O)NC)c2nccc(N3CCc4c(cc(Cn5ccnc5)cc4-c4cn(C)nc4C(F)(F)F)C3=O)c2c1, the AUC(0-inf) was 126000 ng·h/mL (Sprague Dawley rat, male, plasma; oral, 100 mg/kg twice daily, 7 days).
For Cc1cccc(CNC(=O)c2cn(CCNC(=O)c3ccccc3Sc3c([N+](=O)[O-])ncn3C)c3cc4c(cc3c2=O)OC(F)(F)O4)n1, the AUC(0-inf) was 36.5 ng·h/mL (Sprague-Dawley rat, male, whole blood; intramuscular, 3 mg/kg of parent compound).
CCc1c(-c2ccccc2)c(-c2ccccc2)nn1-c1ccccc1-c1cccc(OCC(=O)O)c1 has an AUC(0-inf) observed of 4950 ng·h/mL and 5820 ng·h/mL and 5830 ng·h/mL (Sprague-Dawley rat; oral, dose not given).

For quick reference, copied from above:
CCc1c(-c2ccccc2)c(-c2ccccc2)nn1-c1ccccc1-c1cccc(OCC(=O)O)c1 has an AUC(0-inf) observed of 4950 ng·h/mL and 5820 ng·h/mL and 5830 ng·h/mL (Sprague-Dawley rat; oral, dose not given).
For COC(=O)C1=CO[C@@H](O[C@@H]2O[C@H](CO)[C@@H](O)[C@H](O)[C@H]2O)[C@@H]2C(CO)=CC[C@H]12, the AUC(0-inf) decrease was 135000 ± 64200 ng·h/mL (rat, plasma; oral, dose not given, dosed as combined Eu and Pc extracts; relative to: single extracts).
